Assay results collected from several papers.
Every numbered part comes from another study and shows a few of its results, in no order.
Chain of UniProt Q56UN5 (whole entry, looked up): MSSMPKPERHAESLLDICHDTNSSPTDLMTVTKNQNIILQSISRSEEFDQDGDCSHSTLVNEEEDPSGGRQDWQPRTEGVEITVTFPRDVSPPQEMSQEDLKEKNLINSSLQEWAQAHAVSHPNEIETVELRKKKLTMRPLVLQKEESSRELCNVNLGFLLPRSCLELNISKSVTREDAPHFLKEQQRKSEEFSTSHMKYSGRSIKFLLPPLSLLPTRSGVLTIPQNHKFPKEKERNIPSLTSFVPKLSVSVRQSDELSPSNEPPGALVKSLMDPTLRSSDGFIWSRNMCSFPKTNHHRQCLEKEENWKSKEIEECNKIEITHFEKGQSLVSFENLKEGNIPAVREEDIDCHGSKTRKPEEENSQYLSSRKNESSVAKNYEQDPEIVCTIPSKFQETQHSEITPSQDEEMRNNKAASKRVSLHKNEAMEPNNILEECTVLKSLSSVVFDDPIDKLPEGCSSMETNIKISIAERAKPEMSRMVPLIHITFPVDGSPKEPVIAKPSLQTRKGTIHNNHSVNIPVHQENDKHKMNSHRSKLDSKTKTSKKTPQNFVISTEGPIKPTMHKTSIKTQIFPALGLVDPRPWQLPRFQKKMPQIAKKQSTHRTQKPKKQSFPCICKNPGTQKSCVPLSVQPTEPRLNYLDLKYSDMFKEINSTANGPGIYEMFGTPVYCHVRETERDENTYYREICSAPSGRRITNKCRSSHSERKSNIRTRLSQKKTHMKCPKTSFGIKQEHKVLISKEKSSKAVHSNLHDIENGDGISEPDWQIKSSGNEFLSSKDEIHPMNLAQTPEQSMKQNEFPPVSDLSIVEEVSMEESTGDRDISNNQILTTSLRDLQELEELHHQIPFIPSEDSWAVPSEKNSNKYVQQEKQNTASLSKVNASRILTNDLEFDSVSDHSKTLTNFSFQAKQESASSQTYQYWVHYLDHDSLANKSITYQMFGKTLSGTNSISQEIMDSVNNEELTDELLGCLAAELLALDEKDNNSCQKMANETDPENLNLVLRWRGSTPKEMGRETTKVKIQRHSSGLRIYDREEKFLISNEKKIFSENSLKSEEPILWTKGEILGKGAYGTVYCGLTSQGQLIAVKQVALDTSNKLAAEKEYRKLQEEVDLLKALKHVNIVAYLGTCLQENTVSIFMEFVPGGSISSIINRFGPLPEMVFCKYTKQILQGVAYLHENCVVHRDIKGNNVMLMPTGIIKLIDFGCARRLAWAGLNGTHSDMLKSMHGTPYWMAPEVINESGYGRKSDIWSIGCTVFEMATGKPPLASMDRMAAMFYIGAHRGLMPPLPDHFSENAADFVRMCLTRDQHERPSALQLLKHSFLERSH

Series 1
Target: Ras GTPase-activating protein-binding protein 1, full length (G3BP1, Homo sapiens, UniProt Q13283)
Chain of UniProt Q13283 (whole entry, looked up): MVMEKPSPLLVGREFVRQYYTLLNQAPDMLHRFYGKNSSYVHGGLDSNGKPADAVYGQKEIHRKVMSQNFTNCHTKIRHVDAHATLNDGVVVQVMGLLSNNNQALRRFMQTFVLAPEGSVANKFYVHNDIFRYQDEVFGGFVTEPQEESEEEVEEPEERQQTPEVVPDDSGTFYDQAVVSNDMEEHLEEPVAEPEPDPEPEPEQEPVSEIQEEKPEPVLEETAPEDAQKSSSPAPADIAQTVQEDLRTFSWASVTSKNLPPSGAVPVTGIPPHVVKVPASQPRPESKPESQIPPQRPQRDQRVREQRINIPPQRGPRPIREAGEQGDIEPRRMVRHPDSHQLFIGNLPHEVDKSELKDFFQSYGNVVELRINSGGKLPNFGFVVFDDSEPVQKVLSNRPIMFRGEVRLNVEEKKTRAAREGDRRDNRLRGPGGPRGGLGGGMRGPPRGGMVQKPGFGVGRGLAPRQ
Technique: RNA Bind-n-Seq
Molecule type: RNA
Sample: in vitro
Concentration: 200 nM
Setting: whole 134-nt RNA, ends assumed
Added: 150 mM LiCl
Baseline: input library
Reading: higher = stronger binding
All molecules: 7-deaza-guanosine replaces G
All sequences stand within: GGGAGUUCUACAGUCCGACGAUC … UGGAAUUCUCGGGUGUCAAGG
The log2 enrichment of `UGGCCCUGGUGGCAUGCGGGGAGGAAGAGGUGGCCUCAUGGAUCGUGGUGCUCCCGGUGGAAUGUUCAGAGGUGGCCGUGGUGGAGACAG` is reported as 1.49.
`GCAGGAAGUAAAAACAAAUGGAAAUGCUUCGGAUAGUGGCAGGUGUGGGGGUUGCUAAGGAAAGGGUGGGAUGGGAGUGGGUAAAGAGUU` has a log2 enrichment of 0.305.
`AAGUCCUGUGCUACACAUCGUAUGUACCGAAUCGGGAAAAGGGAAAAGGGGAAAAGGAAAGUAUUAUGUUACGCCGUUCGGAUCUGCACU` has a log2 enrichment of 0.378.
`UGGCCCUGGUGGCAUGCGGGGAGGAAGAGGUGGCCUCAUGGAUCGUGGUGGUCCCGAUGGAAUGUUCAGAGGUGGCCGUGGUGGAGACAG` gave a log2 enrichment of 0.0368.
`UGGCCCUGGUGGCAUGCGGGGAGGAAGAGGUGGCCUCAUGGAUCGUGGUGGUCCCAGUGGAAUGUUCAGAGGUGGCCGUGGUGGAGACAG` has a log2 enrichment of 0.467.
The log2 enrichment of `AGUCCUGUGCUACACAUCGUAUGUACCGAAUCGGGGUUUUUGGGGAGGGGAAAGGGGAAAGUAUUAUGUUACGCCGUUCGGAUCUGCACU` is reported as 0.656.
`GUCCUGUGCUACACAUCGUAUGUACCGAAUCGGGGCCCCCGGGCCCCCGGGCCCCCGGAAAGUAUUAUGUUACGCCGUUCGGAUCUGCAC` has a log2 enrichment of -1.98.
For `CUCAAGUCCUGUGCUACACAUCGUAUGUACCGAAUCGGGGUGGGGUGGGGUGGGAAAGUAUUAUGUUACGCCGUUCGGAUCUGCACUUCC`, the log2 enrichment was -0.783.

Series 2
Target: Histone acetyltransferase KAT6A, winged helix 1, GST fusion (KAT6A, Homo sapiens, UniProt Q92794, residues 1-85)
Technique: protein binding microarray
Molecule type: double-stranded DNA, one strand shown
Sample: in vitro
Concentration: not given
Setting: 8-mer, flanks averaged, mean of 2 arrays, mostly near background
Baseline: not given
Reading: higher = stronger binding
Construct (chain): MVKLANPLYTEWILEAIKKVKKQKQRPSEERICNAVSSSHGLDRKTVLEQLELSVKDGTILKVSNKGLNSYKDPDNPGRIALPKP
`CTCAAGCC` gave an E-score of 0.0278.
For `CCCCCCTA`, the E-score was -0.117.
The E-score of `AAGGCTGG` is reported as -0.235.
`CACTTGTC` gave an E-score of -0.142.
The E-score of `CCCTCGGA` is reported as 0.125.
The E-score of `TACCCGGA` is reported as 0.238.
`GTAGTCCA` has an E-score of -0.026.
For `AAGTTACC`, the E-score was 0.0526.

Mixed results
TNK2: Activated CDC42 kinase 1 (TNK2, Homo sapiens, UniProt Q07912)
Chain of UniProt Q07912 (whole entry, looked up): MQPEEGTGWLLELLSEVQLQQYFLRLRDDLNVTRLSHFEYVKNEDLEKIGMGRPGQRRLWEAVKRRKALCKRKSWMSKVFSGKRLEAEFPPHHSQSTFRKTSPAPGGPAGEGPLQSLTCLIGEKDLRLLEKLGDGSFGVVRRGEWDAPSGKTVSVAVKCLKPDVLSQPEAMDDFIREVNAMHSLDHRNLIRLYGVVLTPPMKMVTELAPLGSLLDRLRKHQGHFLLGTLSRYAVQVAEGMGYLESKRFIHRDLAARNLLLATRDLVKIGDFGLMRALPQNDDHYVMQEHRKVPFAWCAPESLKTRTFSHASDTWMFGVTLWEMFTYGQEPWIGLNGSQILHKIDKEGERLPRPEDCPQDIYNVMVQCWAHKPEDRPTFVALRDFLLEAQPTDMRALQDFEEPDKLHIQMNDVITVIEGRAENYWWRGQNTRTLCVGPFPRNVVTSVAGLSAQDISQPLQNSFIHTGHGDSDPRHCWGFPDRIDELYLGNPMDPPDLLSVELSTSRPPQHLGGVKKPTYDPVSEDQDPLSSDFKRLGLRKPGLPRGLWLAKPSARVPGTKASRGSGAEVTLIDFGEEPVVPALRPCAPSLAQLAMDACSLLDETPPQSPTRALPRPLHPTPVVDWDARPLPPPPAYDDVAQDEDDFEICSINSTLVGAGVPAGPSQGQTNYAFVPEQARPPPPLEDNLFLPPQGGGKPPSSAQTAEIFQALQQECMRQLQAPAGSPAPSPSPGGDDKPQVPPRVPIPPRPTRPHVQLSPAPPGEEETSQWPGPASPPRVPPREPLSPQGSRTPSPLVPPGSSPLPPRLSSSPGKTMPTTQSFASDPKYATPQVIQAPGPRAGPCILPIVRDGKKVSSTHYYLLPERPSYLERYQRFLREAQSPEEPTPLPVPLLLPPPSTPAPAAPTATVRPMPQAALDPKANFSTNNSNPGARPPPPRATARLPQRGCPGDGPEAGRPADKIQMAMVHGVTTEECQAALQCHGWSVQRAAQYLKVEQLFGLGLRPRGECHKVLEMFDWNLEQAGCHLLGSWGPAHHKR
The remaining activity of `O=c1cc(N2CCOCC2)oc2c1ccc1ccccc12` is reported as 100% (TNK2; enzyme activity, inhibitor; 0.5 µM; baseline: control).
The remaining binding of `C[C@H](c1ccc(F)cc1)N(Cc1cccc(C(=O)O)c1)C(=O)c1cnc2ccccc2c1` is reported as 72% (Mitogen-activated protein kinase kinase kinase 19 (MAP3K19, Homo sapiens, UniProt Q56UN5); cell-free assay, competition with immobilised ligand; 1 µM).
For `O=C1NC(=O)/C(=C/c2ccc3nccnc3c2)S1`, the remaining activity was 91.4% (TNK2; enzyme activity, inhibitor; 0.5 µM; baseline: control).

A few entries again (series 1):
The log2 enrichment of `UGGCCCUGGUGGCAUGCGGGGAGGAAGAGGUGGCCUCAUGGAUCGUGGUGCUCCCGGUGGAAUGUUCAGAGGUGGCCGUGGUGGAGACAG` is reported as 1.49.
`GUCCUGUGCUACACAUCGUAUGUACCGAAUCGGGGCCCCCGGGCCCCCGGGCCCCCGGAAAGUAUUAUGUUACGCCGUUCGGAUCUGCAC` has a log2 enrichment of -1.98.
`UGGCCCUGGUGGCAUGCGGGGAGGAAGAGGUGGCCUCAUGGAUCGUGGUGGUCCCAGUGGAAUGUUCAGAGGUGGCCGUGGUGGAGACAG` has a log2 enrichment of 0.467.
